Measured values pooled from the literature.
A part holds a random share of what one study measured.
Sequence of UniProt P07948 (whole entry, looked up): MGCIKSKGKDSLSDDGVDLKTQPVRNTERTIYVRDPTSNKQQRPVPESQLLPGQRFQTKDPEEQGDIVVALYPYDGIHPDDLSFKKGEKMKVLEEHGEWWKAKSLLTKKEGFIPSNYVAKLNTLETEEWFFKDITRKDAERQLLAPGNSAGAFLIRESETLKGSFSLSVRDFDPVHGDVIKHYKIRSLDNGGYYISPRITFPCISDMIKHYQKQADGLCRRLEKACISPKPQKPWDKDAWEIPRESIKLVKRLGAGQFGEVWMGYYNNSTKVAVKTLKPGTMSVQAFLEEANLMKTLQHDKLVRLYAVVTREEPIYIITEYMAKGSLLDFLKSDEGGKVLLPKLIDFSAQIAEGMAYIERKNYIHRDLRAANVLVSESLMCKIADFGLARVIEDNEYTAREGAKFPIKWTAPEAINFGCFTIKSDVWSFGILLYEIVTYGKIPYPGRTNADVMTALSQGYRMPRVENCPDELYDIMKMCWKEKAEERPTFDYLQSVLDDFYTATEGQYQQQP
Sequence of UniProt P54760 (whole entry, looked up): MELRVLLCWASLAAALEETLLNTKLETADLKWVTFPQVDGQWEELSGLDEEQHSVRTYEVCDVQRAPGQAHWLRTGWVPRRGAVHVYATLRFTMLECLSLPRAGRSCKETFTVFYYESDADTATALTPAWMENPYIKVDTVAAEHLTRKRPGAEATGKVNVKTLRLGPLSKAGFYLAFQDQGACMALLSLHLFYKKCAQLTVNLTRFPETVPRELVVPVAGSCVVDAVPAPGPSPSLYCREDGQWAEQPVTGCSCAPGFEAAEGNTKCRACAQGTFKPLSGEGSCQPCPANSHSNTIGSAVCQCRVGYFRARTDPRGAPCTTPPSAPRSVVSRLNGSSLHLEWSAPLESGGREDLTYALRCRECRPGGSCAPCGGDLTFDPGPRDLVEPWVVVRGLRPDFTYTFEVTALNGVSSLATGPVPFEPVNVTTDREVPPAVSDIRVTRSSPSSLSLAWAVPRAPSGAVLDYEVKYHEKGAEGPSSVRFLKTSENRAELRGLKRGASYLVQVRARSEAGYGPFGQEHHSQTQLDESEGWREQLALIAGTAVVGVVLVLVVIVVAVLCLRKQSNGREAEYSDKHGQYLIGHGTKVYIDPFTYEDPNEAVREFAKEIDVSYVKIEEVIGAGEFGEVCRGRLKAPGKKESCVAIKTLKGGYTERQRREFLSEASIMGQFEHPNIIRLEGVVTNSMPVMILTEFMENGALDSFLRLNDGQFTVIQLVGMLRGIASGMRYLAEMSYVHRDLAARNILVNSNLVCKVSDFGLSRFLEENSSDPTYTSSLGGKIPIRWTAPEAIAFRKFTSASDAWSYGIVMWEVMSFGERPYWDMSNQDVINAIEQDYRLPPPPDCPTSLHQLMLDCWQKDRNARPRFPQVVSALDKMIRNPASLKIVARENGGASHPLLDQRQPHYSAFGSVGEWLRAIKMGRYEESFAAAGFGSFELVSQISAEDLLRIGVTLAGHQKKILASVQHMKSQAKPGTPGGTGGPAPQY
Sequence of UniProt Q6P2M8 (whole entry, looked up): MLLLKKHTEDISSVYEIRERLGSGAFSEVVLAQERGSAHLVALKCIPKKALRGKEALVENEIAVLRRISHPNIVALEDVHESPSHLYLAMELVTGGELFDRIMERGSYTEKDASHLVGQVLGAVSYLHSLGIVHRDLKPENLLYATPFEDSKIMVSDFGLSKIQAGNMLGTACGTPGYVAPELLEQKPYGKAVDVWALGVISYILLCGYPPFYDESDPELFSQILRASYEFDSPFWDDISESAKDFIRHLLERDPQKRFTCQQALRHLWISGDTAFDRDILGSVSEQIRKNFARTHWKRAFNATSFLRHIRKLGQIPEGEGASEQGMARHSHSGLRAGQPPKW
Sequence of UniProt P49759 (whole entry, looked up): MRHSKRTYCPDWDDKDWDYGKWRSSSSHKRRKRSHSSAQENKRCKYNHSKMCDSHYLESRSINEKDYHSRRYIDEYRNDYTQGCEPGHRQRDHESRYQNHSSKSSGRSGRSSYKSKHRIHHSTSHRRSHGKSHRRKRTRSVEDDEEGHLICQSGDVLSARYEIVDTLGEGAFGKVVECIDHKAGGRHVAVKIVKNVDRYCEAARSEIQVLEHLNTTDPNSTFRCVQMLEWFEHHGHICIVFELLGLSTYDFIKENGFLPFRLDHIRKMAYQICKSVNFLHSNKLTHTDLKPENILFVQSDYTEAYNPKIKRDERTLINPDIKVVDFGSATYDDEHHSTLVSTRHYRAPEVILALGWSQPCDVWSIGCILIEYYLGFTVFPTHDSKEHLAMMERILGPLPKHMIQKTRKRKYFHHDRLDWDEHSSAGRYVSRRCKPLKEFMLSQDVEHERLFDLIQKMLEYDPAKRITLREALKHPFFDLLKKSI

Study 1
SMILES: COc1ccc2c(c1)O[C@H](c1ccc(OC)c(OC)c1)C[C@@H]2NC(=O)C1(c2ccc3c(c2)OC(F)(F)O3)CC1
Effect on: cell-free assay
Technique: competition with immobilised ligand
Tested at: 1 µM
target | remaining binding
Calcium/calmodulin-dependent protein kinase type 1B (PNCK, Homo sapiens, UniProt Q6P2M8) | 100%
Tyrosine-protein kinase receptor UFO (AXL, Homo sapiens, UniProt P30530) | 100%
Phosphatidylinositol 4,5-bisphosphate 3-kinase catalytic subunit alpha isoform (PIK3CA, Homo sapiens, UniProt P42336, C420R) | 91%
Cytoplasmic tyrosine-protein kinase BMX (BMX, Homo sapiens, UniProt P51813) | 100%
Citron Rho-interacting kinase (CIT, Homo sapiens, UniProt O14578) | 92%
Dual specificity protein kinase CLK1 (CLK1, Homo sapiens, UniProt P49759) | 100%
Tyrosine-protein kinase Lyn (LYN, Homo sapiens, UniProt P07948) | 88%
Cyclin-G-associated kinase (GAK, Homo sapiens, UniProt O14976) | 100%
Mitogen-activated protein kinase kinase kinase kinase 4 (MAP4K4, Homo sapiens, UniProt O95819) | 100%
Ephrin type-B receptor 4 (EPHB4, Homo sapiens, UniProt P54760) | 88%
Receptor-type tyrosine-protein kinase FLT3, autoinhibited (FLT3, Homo sapiens, UniProt P36888) | 83%

Study 2
Target: Sal-like protein 4, full length isoform A (SALL4, Homo sapiens, UniProt Q9UJQ4, residues 1-1053)
Sequence of UniProt Q9UJQ4 (whole entry, looked up): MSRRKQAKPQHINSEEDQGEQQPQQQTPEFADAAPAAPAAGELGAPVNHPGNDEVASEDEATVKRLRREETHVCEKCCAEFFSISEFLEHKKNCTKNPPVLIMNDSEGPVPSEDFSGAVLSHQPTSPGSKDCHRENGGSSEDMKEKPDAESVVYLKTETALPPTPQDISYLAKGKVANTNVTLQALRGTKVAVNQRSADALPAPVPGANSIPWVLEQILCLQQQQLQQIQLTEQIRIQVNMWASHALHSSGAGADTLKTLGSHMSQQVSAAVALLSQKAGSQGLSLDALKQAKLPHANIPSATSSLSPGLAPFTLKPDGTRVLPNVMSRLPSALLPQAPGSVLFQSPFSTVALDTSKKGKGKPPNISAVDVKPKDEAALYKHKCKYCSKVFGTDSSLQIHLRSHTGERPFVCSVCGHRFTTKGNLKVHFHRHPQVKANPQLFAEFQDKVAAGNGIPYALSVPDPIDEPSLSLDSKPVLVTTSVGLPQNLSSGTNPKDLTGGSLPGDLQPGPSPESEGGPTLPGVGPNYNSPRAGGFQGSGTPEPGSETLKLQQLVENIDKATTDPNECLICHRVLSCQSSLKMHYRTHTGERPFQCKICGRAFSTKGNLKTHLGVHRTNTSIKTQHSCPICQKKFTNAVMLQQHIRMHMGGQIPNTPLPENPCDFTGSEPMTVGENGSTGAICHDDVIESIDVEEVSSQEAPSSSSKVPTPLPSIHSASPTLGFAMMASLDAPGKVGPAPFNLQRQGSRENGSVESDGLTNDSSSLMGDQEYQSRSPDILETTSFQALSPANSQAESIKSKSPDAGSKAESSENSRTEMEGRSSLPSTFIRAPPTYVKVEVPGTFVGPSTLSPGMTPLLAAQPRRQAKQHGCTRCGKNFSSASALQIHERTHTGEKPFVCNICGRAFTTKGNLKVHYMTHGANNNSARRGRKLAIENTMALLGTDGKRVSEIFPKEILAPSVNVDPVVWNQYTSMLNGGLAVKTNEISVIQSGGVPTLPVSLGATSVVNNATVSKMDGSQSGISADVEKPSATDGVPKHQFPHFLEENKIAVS
Technique: universal PBM
Molecule type: double-stranded DNA, one strand shown
Medium: in vitro
Tested at: 600 nM
Setting: 8-mer, flanks averaged, mean of replicates
Reading: higher = stronger binding
Sequence | E-score
AATAGAAC | 0.238
GGATCCCA | -0.208
CACGACCG | -0.338
AAGCATAC | 0.279
TACGTTCA | 0.103
ATTCTGGG | -0.0578
CCCGGCGG | -0.45
ACCTATCC | -0.0308

Study 3
Target: Interferon regulatory factor 7, full length, phosphomimetic (IRF7, Homo sapiens, UniProt Q92985, residues 1-503, S471D/S472D/S475D/S476D/S477D/S483D/S484D/S487D)
Technique: protein-binding microarray
Molecule type: double-stranded DNA, one strand shown
Medium: in vitro
Tested at: 2200 nM top
Setting: 60-bp whole probe
With: salmon DNA 0.4 mg/ml
Baseline: random background probes
Reading: higher = stronger binding
All sequences stand within: GCCTAGCAC … GTCTTGATTCGCTTGACGCTGCTG
Residues (chain): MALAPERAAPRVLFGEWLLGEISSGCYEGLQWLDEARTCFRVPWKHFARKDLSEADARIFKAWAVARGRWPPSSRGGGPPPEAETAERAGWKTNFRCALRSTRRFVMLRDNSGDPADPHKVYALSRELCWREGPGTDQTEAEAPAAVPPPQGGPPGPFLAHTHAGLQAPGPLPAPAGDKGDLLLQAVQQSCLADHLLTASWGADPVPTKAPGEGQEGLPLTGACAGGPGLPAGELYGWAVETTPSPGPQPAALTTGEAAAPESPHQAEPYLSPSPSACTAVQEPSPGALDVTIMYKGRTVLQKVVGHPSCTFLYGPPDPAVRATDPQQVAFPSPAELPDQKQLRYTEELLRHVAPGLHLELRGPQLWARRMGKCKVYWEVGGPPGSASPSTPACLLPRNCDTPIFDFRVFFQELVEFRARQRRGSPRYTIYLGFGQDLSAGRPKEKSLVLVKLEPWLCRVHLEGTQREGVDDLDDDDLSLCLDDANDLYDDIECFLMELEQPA
Sequence | fitted relative affinity
TTAGGTTTAGGTTTCGGTTAGTGCTAG | 5.95 z-score
TCATGTCTCTGGCCTGGGACTGTGCTA | 0.334 z-score
CTAATTTTGAGACTCATGGGGTGCTAG | -0.169 z-score
GACGATATCAGTTTCGTGACGTGCTAG | 2.64 z-score
TCATATTAGAGTCTCAAACTGTGCTAG | 0.231 z-score
TTAGGTTTCCTTCTTCTTTAGTGCTAG | 2.12 z-score
TTAGGTTTCGGGTTTCGGTGAGTGCTA | 9.31 z-score
AGGAAGACATCAAAGAGAGCGTGCTAG | -1.06 z-score

Study 4
Target: Calcium/calmodulin-dependent protein kinase kinase 2 (CAMKK2, Homo sapiens, UniProt Q96RR4)
Sequence of UniProt Q96RR4 (whole entry, looked up): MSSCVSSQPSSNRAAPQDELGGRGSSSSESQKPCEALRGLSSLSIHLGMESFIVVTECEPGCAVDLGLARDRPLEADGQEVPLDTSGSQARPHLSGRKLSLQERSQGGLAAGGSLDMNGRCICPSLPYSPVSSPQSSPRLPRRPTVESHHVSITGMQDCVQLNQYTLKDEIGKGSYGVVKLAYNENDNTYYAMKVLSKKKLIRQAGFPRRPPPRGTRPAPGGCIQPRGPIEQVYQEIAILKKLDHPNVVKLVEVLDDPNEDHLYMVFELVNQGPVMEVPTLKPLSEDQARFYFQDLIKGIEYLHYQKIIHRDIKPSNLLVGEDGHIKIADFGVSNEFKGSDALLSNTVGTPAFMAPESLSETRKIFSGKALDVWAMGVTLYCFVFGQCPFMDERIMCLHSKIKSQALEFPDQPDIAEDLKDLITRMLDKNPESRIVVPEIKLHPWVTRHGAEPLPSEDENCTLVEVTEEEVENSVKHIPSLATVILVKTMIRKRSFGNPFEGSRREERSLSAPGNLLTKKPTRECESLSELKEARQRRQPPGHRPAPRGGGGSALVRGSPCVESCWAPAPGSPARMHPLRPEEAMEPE
Effect on: enzyme activity
Mode: inhibitor
Tested at: 0.5 µM
Baseline: control
SMILES | remaining activity [%]
O=c1c2ccccc2[nH]c(=S)n1CCN1CCC(=C(c2ccc(F)cc2)c2ccc(F)cc2)CC1 | 100
O=C1NC(=O)C(c2cn(CCCn3ccnc3)c3ccccc23)=C1Nc1ccccc1 | 51.3
Cc1nc(-c2ccccc2)c(-c2ccncc2)o1 | 105
Nc1[nH]nc2nc3ccccc3nc12 | 98.8
Cc1ccc(Nc2nccc(N(C)c3ccc4c(C)n(C)nc4c3)n2)cc1S(N)(=O)=O | 98.5
Cc1ccc(NC(=O)c2ccc(CN3CCN(C)CC3)cc2)cc1Nc1nc(-c2cccnc2)cs1 | 101
Cn1sc(=O)n(Cc2ccccc2)c1=O | 95.2
O=C1NC(=O)C(c2cn(CCCO)c3ncccc23)=C1c1cnccn1 | 115
Oc1ccc(-c2nc(-c3ccncc3)c(-c3ccc(F)cc3)[nH]2)cc1 | 118
COc1ccc(OC)c2c(=S)c3ccccc3[nH]c12 | 108
O=S(=O)(c1cccc2cnccc12)N1CCCNCC1 | 95.9
CN(C)c1ccc(C=C2C(=O)Nc3ccccc32)cc1 | 100
COc1ccc(CNC(=O)Nc2ncc([N+](=O)[O-])s2)cc1 | 92.7

Excerpt of the above (study 3):
Sequence | fitted relative affinity
TTAGGTTTAGGTTTCGGTTAGTGCTAG | 5.95 z-score
TCATGTCTCTGGCCTGGGACTGTGCTA | 0.334 z-score
CTAATTTTGAGACTCATGGGGTGCTAG | -0.169 z-score
GACGATATCAGTTTCGTGACGTGCTAG | 2.64 z-score
TCATATTAGAGTCTCAAACTGTGCTAG | 0.231 z-score
